Measurements gathered from unrelated publications.
Each line is one published result; not all experiments were run side by side. “And” joins repeats or separate records; there may be more than shown. Numbers after ± are the reported error.

Compound	test	test system	setting	scale	endpoint	value
N#Cc1ccc2c(c1)[C@H]1CCCN(C(=O)c3ccc4[nH]cnc4c3)[C@H]1C2		human, Phase II trial	oral, 80 mg once daily, day 28, adjusted mean, SE		body weight change from baseline	0.29 kg
N#Cc1ccc2c(c1)[C@H]1CCCN(C(=O)c3ccc4[nH]cnc4c3)[C@H]1C2		human, urine	240 mg, 336 h, day 14 over day -1	reference: placebo and baseline	total urinary corticosteroids	104 % change
C[C@H](Oc1ccc(Br)cc1-c1ccon1)C(=O)O	muscle velocity recovery cycles	human, tibialis anterior muscle	400 mg once daily, multiple doses, frequency ramp, last response at 15 Hz	reference: placebo	latency change	-1.27%
CCO		supine	median		time to maximum DBP change	1.97 h
C[C@H]1O[C@@H](O[C@H]2CC[C@@]3(C)[C@@H](CC[C@]4(C)[C@@H]3C=C[C@]35OC[C@@]6(CCC(C)(C)C[C@H]63)[C@@H](O)C[C@]54C)[C@]2(C)CO)[C@H](O)[C@@H](O[C@@H]2O[C@H](CO)[C@@H](O)[C@H](O)[C@H]2O)[C@H]1O		pair-fed control mice, no ethanol, plasma	oral, 15 mg/kg/day		ALT activity	22.7 U/L and 21 U/L and 28.9 U/L and 20.9 U/L and 20.4 U/L
CN(C)C(=O)Oc1cccc([N+](C)(C)C)c1	neuromuscular block reversal	rat	dose not given, 5.5 (unit not given), together with: cisatracurium	reference: T1 twitch	train-of-four ratio	32
COc1ccc2c(c1)CC[C@@H]1[C@@H]2CC[C@]2(C)[C@@H](NCCCCCCN3C(=O)C=CC3=O)CC[C@@H]12	immunostaining	humanized mouse, SAH model, middle cerebral artery	dose not given		p-PKA level	7.46 MFI and 3.69 MFI and 5.26 MFI
COc1ccc(F)cc1C(=O)NCc1ccc(-c2nn([C@@H](C)C(F)(F)F)c(N)c2C(N)=O)cc1		CLL/SLL patients	dose not given, all efficacy-evaluable patients		overall response rate	63%
COc1cc(Nc2ncc3c(n2)-c2ccc(Cl)cc2C(c2c(F)cccc2OC)=NC3)ccc1C(=O)O		female NOD/scid mice, ALL-19 B-precursor ALL xenograft	2.6 mg/kg, 5 days weekly, score scale 0 to 10	direction not given	median response score	0
Cc1c(C)n(Cc2cccc(OC(C)(C)C(=O)O)c2)c2ccc(C(=O)N[C@@H](C)c3ccc(C(C)(C)C)cc3)cc12		C57BL/6 mice, diet-induced obese, L4 vertebra	dose not given		marrow fat volume/total volume	0%
Cc1cc(Nc2cc3ncccc3c(N[C@@H]3C[C@H]4CC[C@@H](C3)N4CCC#N)n2)n[nH]1		moderate-severe ulcerative colitis patients	270 mg, day 28, unit not given	reference: baseline	change in partial Mayo	-2.4
CC#Cc1cncc(-c2ccc3c(c2)[C@@]2(N=C(C)C(N)=N2)[C@]2(CC[C@H](OC)CC2)C3)c1	brain Aβ40 reduction	beagle dog	oral, free brain concentration basis		IC50	0.8 nM
N#Cc1ccn2c(-c3ccncc3)c(-c3ccc(F)cc3)nc2c1	kinase binding, competitor, MIB/MS competition, refers to: PKH2	Candida albicans cell lysate	1 µM	reference: DMSO	log2 fold change	-0.17
C=CCn1c(=O)c2cnc(Nc3ccc(N4CCN(C)CC4)cc3)nc2n1-c1ccc2c(n1)[C@@](O)(CC)CC2		NCI-H82 xenograft, BALB/c nude mice	oral, 80 mg/kg once daily x 21, day 20	reference: vehicle	tumour growth inhibition	34.8%
O=C(O)CNC(=O)Cc1ccccc1		ventricular cardiomyocytes, C57BL/6 mouse	dose not given, 0.44 s		sarcomere length	1.72 µm
CN[C@@H]1COc2c(S(=O)(=O)NC(=O)Nc3c4c(cc5c3CCC5)CCC4)cnn2C1	refers to: IL-1β	human participants, whole blood ex vivo	900 mg twice daily, multiple doses, 4 h, together with: LPS/ATP	reference: baseline	inhibition	99.8%
CC(C)NCC(O)c1ccc(O)c(O)c1 (stereo not drawn)		ventricular cardiomyocytes, C57BL/6 mouse	dose not given, 0.356 s		sarcomere length	1.72 µm
O=C(COc1ccc(Cl)cc1)NC12CC(c3nnc([C@H]4C[C@@H](OC(F)(F)F)C4)o3)(C1)C2		healthy human, PBMC	oral, 400 mg single dose, day 2, 24 h post-dose, median, together with: sodium arsenite ex vivo	reference: baseline	CHAC1 mRNA change	-58.1%
[Cl-].[Cl-].[Pt+2].[Ru+2].c1ccc(-c2nccnc2-c2ccccn2)nc1.c1cnc2c(c1)ccc1cccnc12.c1cnc2c(c1)ccc1cccnc12	chloride substitution, UV-vis kinetics	aqueous buffer	concentration not given, pH 7.2, second substitution step, together with: guanosine 5'-monophosphate		negative activation entropy	143 ± 9 J/(mol·K)
Cc1n[nH]c2ccc(-c3cc(OC[C@@H](N)Cc4ccccc4)cnc3-c3ccoc3)cc12	kinase binding, competitor, MIB/MS competition, refers to: SHA3	Candida albicans cell lysate	1 µM	reference: DMSO	log2 fold change	-0.569

Compound	test	test system	setting	scale	endpoint	value
CC1(C)CCC(c2ccc(Cl)cc2)=C(CN2CCN(c3ccc(C(=O)NS(=O)(=O)c4ccc(N[C@H](CCN5CCOCC5)CSc5ccccc5)c(S(=O)(=O)C(F)(F)F)c4)cc3)CC2)C1	cell kill	primary neoplastic B cells, dog 24	24 h, unspecified B-cell neoplasm		EC50	3900 nM
CS(=O)(=O)CCNCc1ccc(-c2ccc3ncnc(Nc4ccc(OCc5cccc(F)c5)c(Cl)c4)c3c2)o1	tumour growth	Calu-3 xenograft, mouse	oral, daily		ED50	169 mg/kg
COc1cc2cc(-c3ccc(CC(=O)Nc4cc(C(C)(C)C(F)(F)F)no4)cn3)cnc2cc1OC	RECIST v1.1	RET-altered advanced solid tumour patients	oral, 40 mg once daily, phase I		progressive disease as best response	0%
C[C@@H](NC(=O)N1C(=O)[C@H](Cc2ccnc(N)c2)[C@H]1C(=O)O)C1CCCCC1		human	iv infusion, 1.5 mg/kg/h, 24 h		ACT AUEC	16000 h·s
c1ccc(-c2n[nH]cc2-c2ccnc3ccccc23)nc1	kinase binding, competitor, MIB/MS competition, refers to: AKL1	Candida albicans cell lysate	100 nM	reference: DMSO	log2 fold change	1.52
Cc1ccc([C@@H]2O[C@H](CO)[C@@H](O)[C@H](O)[C@H]2O)cc1Cc1ccc(-c2ccc(F)cc2)s1		Japanese type 2 diabetes patients	100 mg, day 16	reference: day 0	change, mean 24 h, plasma glucose	-29 mg/dL
CC(C)C[C@@H](NC(=O)[C@H](C)NC(=O)CNC(=O)[C@@H](NC=O)C(C)C)C(=O)N[C@@H](C)C(=O)N[C@@H](C(=O)N[C@H](C(=O)N[C@@H](C(=O)N[C@@H](Cc1c[nH]c2ccccc12)C(=O)N[C@H](CC(C)C)C(=O)N[C@@H](Cc1cc2ccccc2[nH]1)C(=O)N[C@H](CC(C)C)C(=O)N[C@@H](Cc1c[nH]c2ccccc12)C(=O)N[C@H](CC(C)C)C(=O)N[C@@H](Cc1c[nH]c2ccccc12)C(=O)NCCO)C(C)C)C(C)C)C(C)C	H+/Na+ transport, pyranine pH-gradient	EYPC/EYPG LUVs 19:1			EC50	2.54 ± 0.67 nM
CCCCCCCC(=O)OC[C@H](NC(=O)[C@H](CO)NC(=O)CN)C(=O)N[C@@H](Cc1ccccc1)C(=O)N[C@@H](CC(C)C)C(=O)N[C@@H](CO)C(=O)N1CCC[C@H]1C(=O)N[C@@H](CCC(=O)O)C(=O)N[C@@H](Cc1c[nH]cn1)C(=O)N[C@@H](CCC(N)=O)C(=O)N[C@@H](CCCNC(=N)N)C(=O)N[C@H](C(=O)N[C@@H](CCC(N)=O)C(=O)N[C@@H](CCC(N)=O)C(=O)N[C@@H](CCCNC(=N)N)C(=O)N[C@@H](CCCCN)C(=O)N[C@@H](CCC(=O)O)C(=O)N[C@@H](CO)C(=O)N[C@@H](CCCCN)C(=O)N[C@@H](CCCCN)C(=O)N1CCC[C@H]1C(=O)N1CCC[C@H]1C(=O)N[C@@H](C)C(=O)N[C@@H](CCCCN)C(=O)N[C@@H](CC(C)C)C(=O)N[C@@H](CCC(N)=O)C(=O)N1CCC[C@H]1C(=O)N[C@@H](CCCNC(=N)N)C(=O)O)C(C)C		C57BL/6N mice, male	subcutaneous, 2 mg/kg, 2 h, standard chow	reference: saline	food intake increase	~86%
C[C@H]1C[C@H]2CSC(N)=N[C@@]2(c2nc(NC(=O)c3ccc(OC(F)F)cn3)cs2)CO1	refers to: Aβ1-40	healthy adults, plasma	275 mg once daily, day 4	reference: placebo	percent change from baseline	-87.3%
CN(C(=O)n1cnc(-c2ccc[n+]([O-])c2)c1)C1CCCCC1	refers to: LEA	human, plasma	2.5 mg once daily, day 10		AUC(0-tau)	130 ng·h/mL
CC(C)[C@H](C(=O)Nc1ccc(C(=O)NO)cc1)c1ccccc1	volumetric MRI	human, right meningioma	dose not given, day 170		tumour volume	8.9 cm3
C[C@@H](O)CCOC(=O)C[C@@H](C)O	refers to: C16:1 acylcarnitine	human, plasma	60 min, log2-transformed values		metabolite level	-5.57 ± 0.65 µmol/L
COc1ccc(-c2cncc(N[C@@H](C)c3cccc(NC(=O)c4cncc(C)c4)c3)n2)cc1OC	refers to: rno-miR-32-5p	rat SU5416/hypoxia model, lung	dose not given, unit not given	reference: SU5416/hypoxia vehicle	delta delta Ct	0.995
O=C1N(Cc2ccccc2Cl)c2ccccc2C12NN=C(c1ccccc1)S2 (stereo not drawn)		SK-BR-3 xenograft, mouse	oral, 1277.5 mg/kg total, subcutaneous xenograft	reference: vehicle	T/C	> 100%
CO[C@H]1CC[C@H](N2C(=O)CNc3ncc(-c4ccc(C(C)(C)O)nc4)nc32)CC1	flow cytometry	stimulated monocytes, human, blood	60 mg single dose, 3 h, median	reference: baseline	pAKT change from baseline	-48.4%
O=C(/C=C/c1ccc(O)c(O)c1/C=C/c1ccc(O)c(O)c1)O[C@H](Cc1ccc(O)c(O)c1)C(=O)O		isolated myocardial tissue	1 µM		LVDP	51.5 mmHg
NC(=O)c1cnc2[nH]ccc2c1N[C@@H]1[C@@H]2CC3C[C@H]1C[C@@](O)(C3)C2	CD8+ naive T cells, flow cytometry	Caucasian humans, peripheral blood	200 mg single dose	reference: baseline	percent change	-0.75%
[Cl-].[Cl-].[Pt+2].[Ru+2].c1ccc(-c2nc3ccccc3nc2-c2ccccn2)nc1.c1cnc2c(c1)ccc1cccnc12.c1cnc2c(c1)ccc1cccnc12	chloride substitution, UV-vis kinetics	aqueous buffer	concentration not given, pH 7.2, first substitution step, together with: guanosine 5'-monophosphate		negative activation entropy	159 ± 9 J/(mol·K)
CSCCNc1nc(SCCC(F)(F)F)nc2c1ncn2[C@@H]1O[C@H](COP(=O)(O)OP(=O)(O)C(Cl)(Cl)P(=O)(O)O)[C@@H](O)[C@H]1O	ADP-induced platelet aggregation, LTA	human patients, platelet-rich plasma	dose not given, 1 h, together with: ADP 20 µM		inhibition	32.6 ± 19.6%

For quick reference, copied from above:
Compound	test	test system	setting	scale	endpoint	value
[Cl-].[Cl-].[Pt+2].[Ru+2].c1ccc(-c2nc3ccccc3nc2-c2ccccn2)nc1.c1cnc2c(c1)ccc1cccnc12.c1cnc2c(c1)ccc1cccnc12	chloride substitution, UV-vis kinetics	aqueous buffer	concentration not given, pH 7.2, first substitution step, together with: guanosine 5'-monophosphate		negative activation entropy	159 ± 9 J/(mol·K)
COc1cc(Nc2ncc3c(n2)-c2ccc(Cl)cc2C(c2c(F)cccc2OC)=NC3)ccc1C(=O)O		female NOD/scid mice, ALL-19 B-precursor ALL xenograft	2.6 mg/kg, 5 days weekly, score scale 0 to 10	direction not given	median response score	0
CO[C@H]1CC[C@H](N2C(=O)CNc3ncc(-c4ccc(C(C)(C)O)nc4)nc32)CC1	flow cytometry	stimulated monocytes, human, blood	60 mg single dose, 3 h, median	reference: baseline	pAKT change from baseline	-48.4%
C[C@@H](O)CCOC(=O)C[C@@H](C)O	refers to: C16:1 acylcarnitine	human, plasma	60 min, log2-transformed values		metabolite level	-5.57 ± 0.65 µmol/L
C[C@@H](NC(=O)N1C(=O)[C@H](Cc2ccnc(N)c2)[C@H]1C(=O)O)C1CCCCC1		human	iv infusion, 1.5 mg/kg/h, 24 h		ACT AUEC	16000 h·s
